# Measurements pooled from the literature.
# ± gives the spread as reported.
# SCN9A: Sodium channel protein type 9 subunit alpha (SCN9A, Homo sapiens, UniProt Q15858)
# Chain of UniProt Q15858 (whole entry, looked up): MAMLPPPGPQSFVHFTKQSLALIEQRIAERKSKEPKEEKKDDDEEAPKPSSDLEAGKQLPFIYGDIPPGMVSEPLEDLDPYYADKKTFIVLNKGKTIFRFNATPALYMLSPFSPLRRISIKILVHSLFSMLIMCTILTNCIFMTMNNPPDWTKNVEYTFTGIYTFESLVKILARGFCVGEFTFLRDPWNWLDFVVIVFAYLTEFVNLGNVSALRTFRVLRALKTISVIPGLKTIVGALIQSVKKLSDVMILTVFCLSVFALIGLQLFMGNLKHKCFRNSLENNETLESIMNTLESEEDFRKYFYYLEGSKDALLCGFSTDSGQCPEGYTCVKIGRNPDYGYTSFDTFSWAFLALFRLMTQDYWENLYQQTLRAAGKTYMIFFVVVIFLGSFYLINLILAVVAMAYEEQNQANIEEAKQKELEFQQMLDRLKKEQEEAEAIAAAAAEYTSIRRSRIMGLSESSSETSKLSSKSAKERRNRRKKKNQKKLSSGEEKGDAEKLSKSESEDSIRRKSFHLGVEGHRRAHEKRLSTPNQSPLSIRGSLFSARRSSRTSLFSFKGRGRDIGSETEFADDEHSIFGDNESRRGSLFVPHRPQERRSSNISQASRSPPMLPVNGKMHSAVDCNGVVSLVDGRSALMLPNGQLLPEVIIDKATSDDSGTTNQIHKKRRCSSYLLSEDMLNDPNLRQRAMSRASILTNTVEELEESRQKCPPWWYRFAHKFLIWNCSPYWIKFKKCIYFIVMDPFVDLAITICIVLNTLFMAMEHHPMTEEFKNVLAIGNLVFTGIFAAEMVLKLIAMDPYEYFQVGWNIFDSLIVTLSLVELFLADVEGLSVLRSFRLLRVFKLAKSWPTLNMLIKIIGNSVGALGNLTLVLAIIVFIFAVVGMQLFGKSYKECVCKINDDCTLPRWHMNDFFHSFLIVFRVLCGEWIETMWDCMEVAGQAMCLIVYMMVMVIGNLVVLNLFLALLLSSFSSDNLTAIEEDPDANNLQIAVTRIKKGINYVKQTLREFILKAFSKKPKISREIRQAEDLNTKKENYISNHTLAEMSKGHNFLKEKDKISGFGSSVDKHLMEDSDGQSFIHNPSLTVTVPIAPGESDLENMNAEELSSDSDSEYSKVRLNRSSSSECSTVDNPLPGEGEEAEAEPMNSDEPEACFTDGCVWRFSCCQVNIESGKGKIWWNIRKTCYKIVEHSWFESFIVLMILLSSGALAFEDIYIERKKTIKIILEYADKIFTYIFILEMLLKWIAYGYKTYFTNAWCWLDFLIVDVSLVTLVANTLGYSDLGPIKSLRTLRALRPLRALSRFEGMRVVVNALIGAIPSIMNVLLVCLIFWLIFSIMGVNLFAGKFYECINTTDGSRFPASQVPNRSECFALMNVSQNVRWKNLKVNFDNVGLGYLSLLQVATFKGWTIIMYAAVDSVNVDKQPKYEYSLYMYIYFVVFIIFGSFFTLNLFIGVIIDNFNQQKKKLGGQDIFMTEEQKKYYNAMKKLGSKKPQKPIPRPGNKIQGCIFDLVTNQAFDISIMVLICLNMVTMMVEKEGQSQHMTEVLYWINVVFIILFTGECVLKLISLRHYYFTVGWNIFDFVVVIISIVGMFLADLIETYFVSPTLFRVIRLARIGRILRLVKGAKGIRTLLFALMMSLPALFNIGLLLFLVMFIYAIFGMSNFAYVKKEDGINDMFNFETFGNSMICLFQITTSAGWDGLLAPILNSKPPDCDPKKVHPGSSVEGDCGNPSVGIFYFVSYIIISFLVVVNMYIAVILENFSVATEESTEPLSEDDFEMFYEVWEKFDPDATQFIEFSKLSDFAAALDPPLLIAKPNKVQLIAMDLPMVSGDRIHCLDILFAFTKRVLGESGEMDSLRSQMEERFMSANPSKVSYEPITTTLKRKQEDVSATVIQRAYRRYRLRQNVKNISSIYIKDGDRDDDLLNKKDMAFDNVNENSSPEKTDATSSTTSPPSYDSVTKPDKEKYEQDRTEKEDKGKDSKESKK
# MAL12: Alpha-glucosidase MAL12 (MAL12, Saccharomyces cerevisiae S288c, UniProt P53341)
# Chain of UniProt P53341 (whole entry, looked up): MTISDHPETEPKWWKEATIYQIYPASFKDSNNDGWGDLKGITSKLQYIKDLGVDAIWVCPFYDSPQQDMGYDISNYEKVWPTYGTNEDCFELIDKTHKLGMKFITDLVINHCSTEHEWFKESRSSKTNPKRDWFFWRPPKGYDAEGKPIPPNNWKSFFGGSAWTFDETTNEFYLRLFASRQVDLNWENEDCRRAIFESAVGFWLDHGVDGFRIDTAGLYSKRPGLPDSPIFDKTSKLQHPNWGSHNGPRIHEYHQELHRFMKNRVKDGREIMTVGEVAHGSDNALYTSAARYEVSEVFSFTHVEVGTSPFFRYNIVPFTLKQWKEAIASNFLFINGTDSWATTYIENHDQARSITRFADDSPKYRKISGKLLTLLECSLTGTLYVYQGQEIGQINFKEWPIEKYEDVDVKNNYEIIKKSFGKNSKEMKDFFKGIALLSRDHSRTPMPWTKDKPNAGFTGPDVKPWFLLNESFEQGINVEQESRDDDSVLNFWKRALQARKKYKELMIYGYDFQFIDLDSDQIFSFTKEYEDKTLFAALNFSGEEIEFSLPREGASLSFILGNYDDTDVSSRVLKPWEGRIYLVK
# HSPA1A with Hdj2: Heat shock 70 kDa protein 1A, with Hdj2 (HSPA1A, Homo sapiens, UniProt P0DMV8)
# Chain of UniProt P0DMV8 (whole entry, looked up): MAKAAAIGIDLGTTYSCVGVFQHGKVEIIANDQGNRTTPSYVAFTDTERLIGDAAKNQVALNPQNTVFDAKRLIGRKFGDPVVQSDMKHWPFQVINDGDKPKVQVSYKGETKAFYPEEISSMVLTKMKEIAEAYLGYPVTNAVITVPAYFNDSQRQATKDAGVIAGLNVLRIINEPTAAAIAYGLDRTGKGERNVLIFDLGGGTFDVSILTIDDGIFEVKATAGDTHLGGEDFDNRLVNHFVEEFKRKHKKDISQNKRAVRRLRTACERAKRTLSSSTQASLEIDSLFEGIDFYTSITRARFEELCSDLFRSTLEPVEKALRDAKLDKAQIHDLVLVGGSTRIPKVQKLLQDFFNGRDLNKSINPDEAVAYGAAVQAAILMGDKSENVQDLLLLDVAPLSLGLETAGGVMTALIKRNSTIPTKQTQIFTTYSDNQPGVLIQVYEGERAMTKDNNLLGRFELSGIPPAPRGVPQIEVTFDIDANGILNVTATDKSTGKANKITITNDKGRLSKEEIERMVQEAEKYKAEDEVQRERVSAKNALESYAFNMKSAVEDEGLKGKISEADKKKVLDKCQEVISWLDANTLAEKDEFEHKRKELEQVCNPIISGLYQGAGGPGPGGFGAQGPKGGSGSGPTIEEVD
# GRM4: Metabotropic glutamate receptor 4 (GRM4, Homo sapiens, UniProt Q14833)
# Chain of UniProt Q14833 (whole entry, looked up): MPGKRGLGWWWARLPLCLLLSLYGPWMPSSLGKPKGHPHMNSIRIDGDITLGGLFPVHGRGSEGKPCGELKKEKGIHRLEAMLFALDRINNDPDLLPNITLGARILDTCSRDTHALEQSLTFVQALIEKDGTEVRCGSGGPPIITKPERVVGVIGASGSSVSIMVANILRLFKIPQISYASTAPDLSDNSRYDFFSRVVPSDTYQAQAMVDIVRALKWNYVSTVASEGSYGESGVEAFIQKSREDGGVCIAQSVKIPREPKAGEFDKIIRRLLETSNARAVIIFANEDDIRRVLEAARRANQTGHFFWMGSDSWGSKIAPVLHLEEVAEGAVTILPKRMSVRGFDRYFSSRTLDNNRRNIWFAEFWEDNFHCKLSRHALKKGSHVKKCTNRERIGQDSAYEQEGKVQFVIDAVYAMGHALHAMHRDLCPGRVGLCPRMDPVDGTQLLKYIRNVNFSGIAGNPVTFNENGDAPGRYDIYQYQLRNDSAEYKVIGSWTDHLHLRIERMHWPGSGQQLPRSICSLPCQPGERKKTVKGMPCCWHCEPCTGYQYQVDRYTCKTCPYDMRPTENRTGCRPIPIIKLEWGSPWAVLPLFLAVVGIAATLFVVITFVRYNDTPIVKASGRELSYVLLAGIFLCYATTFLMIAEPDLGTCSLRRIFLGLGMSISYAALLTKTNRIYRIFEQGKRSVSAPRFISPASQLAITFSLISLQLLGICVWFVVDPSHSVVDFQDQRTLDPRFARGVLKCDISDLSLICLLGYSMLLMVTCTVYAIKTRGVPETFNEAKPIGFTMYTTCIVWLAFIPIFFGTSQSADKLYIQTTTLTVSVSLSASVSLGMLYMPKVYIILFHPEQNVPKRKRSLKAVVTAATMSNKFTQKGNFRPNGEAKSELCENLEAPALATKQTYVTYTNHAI
# HBA1 with beta chain: Hemoglobin subunit alpha, with beta chain (HBA1, Homo sapiens, UniProt P69905)
# Chain of UniProt P69905 (whole entry, looked up): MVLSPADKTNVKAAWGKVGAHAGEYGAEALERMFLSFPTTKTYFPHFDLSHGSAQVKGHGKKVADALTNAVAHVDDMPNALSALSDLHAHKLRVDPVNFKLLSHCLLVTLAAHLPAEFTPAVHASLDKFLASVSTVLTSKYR
# WWOX Y85W WW2 domain Y85W: WW domain-containing oxidoreductase, WW2 domain Y85W (WWOX, Homo sapiens, UniProt Q9NZC7, Y85W)
# Chain of UniProt Q9NZC7 (whole entry, unmodified, looked up): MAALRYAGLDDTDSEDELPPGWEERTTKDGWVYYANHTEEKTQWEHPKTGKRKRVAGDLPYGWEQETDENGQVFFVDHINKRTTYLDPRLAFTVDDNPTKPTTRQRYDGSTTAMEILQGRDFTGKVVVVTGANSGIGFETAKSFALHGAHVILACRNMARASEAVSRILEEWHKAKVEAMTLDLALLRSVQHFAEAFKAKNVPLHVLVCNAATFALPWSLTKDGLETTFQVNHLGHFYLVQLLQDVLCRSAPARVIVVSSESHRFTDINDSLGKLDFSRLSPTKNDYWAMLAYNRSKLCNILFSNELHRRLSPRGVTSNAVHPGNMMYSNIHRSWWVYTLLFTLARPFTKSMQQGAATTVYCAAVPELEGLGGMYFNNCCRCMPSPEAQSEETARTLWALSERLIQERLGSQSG
# Chain of UniProt P33033 (whole entry, looked up): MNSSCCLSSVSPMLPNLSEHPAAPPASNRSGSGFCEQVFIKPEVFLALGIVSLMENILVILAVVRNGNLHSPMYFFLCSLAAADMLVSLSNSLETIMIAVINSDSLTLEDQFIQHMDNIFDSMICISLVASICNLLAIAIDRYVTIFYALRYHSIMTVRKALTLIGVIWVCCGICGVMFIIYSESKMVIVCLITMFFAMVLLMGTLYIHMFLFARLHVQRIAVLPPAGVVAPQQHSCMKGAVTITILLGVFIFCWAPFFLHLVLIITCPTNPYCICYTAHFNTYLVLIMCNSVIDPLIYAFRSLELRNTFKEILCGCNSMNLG
Molecule,target,assay,system,setting,how to read,endpoint,result
C=CC1=C(C)c2cc3[nH]c(cc4nc(cc5[nH]c(cc1n2)c(C)c5CCC(=O)O)C(CCC(=O)O)=C4C)c(C)c3C=C,"Beta-lactoglobulin (LGB, Bos taurus, UniProt P02754)",fluorescence quenching,,"pH 7.4, 27 °C",,binding constant,18600 M⁻¹
COC(=O)c1scc(C)c1NC(=O)C(C)N1CC(C)OC(C)(C)C1 (centres unmarked),SCN9A,cell membrane chromatography,,,higher = stronger binding,capacity factor k′,5.8
COc1cc2c(=O)c(OC)c(-c3ccccc3)oc2c(O)c1OC,MAL12,"enzyme activity, inhibitor, absorbance",,25 µM,,inhibition,20.4%
CC1=C(C(=O)OCc2ccccc2)C(c2ccc(-c3ccccc3)cc2)NC(=O)N1CCCCCc1nnn[nH]1 (centres unmarked),HSPA1A with Hdj2,"ATPase activity, inhibitor",,"100 µM, Hsp40-stimulated activity, together with: Hdj2 Hsp70:Hsp40 1:0.5","baseline: DMSO, negative means inhibition",fold change in activity,-1.3 fold
COc1ccc([C@H]2Sc3ccccc3N(CCN(C)C)C(=O)[C@H]2OC(C)=O)cc1,"CNGA1/CNGB1 (Bos taurus, UniProt Q00194+Q28181)","cGMP-activated current, blocker, inside-out patch clamp",,"pH 7.2, about 20 °C, +60 mV, high-affinity component, together with: 2.5 mM cGMP",,K1/2,0.56 ± 0.09 µM
CC(C)C[C@H](NC(=O)[C@@H](NC(=O)[C@@H](N)[C@@H](C)O)C(C)C)C(=O)N1CCC[C@H]1C(=O)N1CCC[C@H]1C(=O)N1CCC[C@H]1C(=O)N1CCC[C@H]1C(=O)N[C@@H](Cc1ccc(O)cc1)C(=O)N[C@@H](C)C(=O)N[C@@H](Cc1c[nH]cn1)C(=O)N[C@@H](CCCNC(=N)N)C(=O)N[C@@H](CC(N)=O)C(=O)O,"WW domain-containing oxidoreductase, WW1 domain (WWOX, Homo sapiens, UniProt Q9NZC7)","binding to WW1 domain, isothermal titration calorimetry",,"concentration not given, pH 7.0, 25 °C",,binding enthalpy ΔH,-4.02 ± 0.24 kcal/mol
O=Cc1ccc(CO)o1,"Hemoglobin subunit alpha, with sickle beta chain (HBA1, Homo sapiens, UniProt P69905)",oxygen affinity,sickle red cell lysate,2000 µM,baseline: untreated,P50 change,33.4 ± 0.9%
O=C(Nc1ccccn1)C12CC1/C(=N\O)c1ccccc1O2 (centres unmarked),GRM4,"calcium mobilisation, positive allosteric modulator",CHO hmGluR4/Gqi5,together with: glutamate EC20,baseline: PHCCC,maximal potentiation,94.9%
COc1ccc(OCC2c3cc(OC)c(OC)cc3CCN2C(=O)c2cccc(Cl)c2)cc1 (centres unmarked),"Glutamate receptor ionotropic, NMDA 2D, with NR1 (Rattus norvegicus, UniProt Q62645)",outside-out patch clamp,,"10 µM, together with: GluN1 co-expressed",,open time constant 2,0.63 ± 0.06 ms
CCCC/C=C\CCCCCCCCCCCC=O,"chemosensory protein 3 (Chilo suppressalis, UniProt V9PY40)","binding, competitive ligand, fluorescence competitive binding",,"highest concentration tested, pH 7.4, protein 2 µM, together with: 1-NPN 2 µM",baseline: no ligand,remaining 1-NPN fluorescence,44.5 ± 2.2%
C[C@H]1CN(C(=O)Nc2ccc(Cl)c(Cl)c2)CCN1c1ccnc(Nc2ccc(Cl)cc2)n1,MAL12,"enzyme activity, inhibitor",Saccharomyces cerevisiae,together with: p-nitrophenyl glucoside substrate,baseline: S over R enantiomer,activity ratio,~3 fold
O=Cc1ccc(COc2ccccc2[N+](=O)[O-])o1,HBA1 with beta chain,measured: haemoglobin A adduct,human normal whole blood,"2000 µM, 24 h, hematocrit 30%",,peak modification,24.7%
Nc1nc2c(ncn2[C@@H]2O[C@@H]3COP(=O)(O)O[C@H]3[C@H]2O)c(=O)[nH]1,"CNGA1/CNGB1 (Bos taurus, UniProt Q00194+Q14028)","ion current, agonist, inside-out patch clamp",Xenopus oocytes,rod heteromeric channel,baseline: maximum cGMP current at start,Imax relative to cGMP,0.75
COc1cc2oc(-c3ccccc3)cc(=O)c2c(OC)c1O,MAL12,"enzyme activity, inhibitor, absorbance",,100 µM,,inhibition,69.6%
CC(C)C[C@H](NC(=O)[C@@H](NC(=O)[C@@H](N)[C@@H](C)O)C(C)C)C(=O)N1CCC[C@H]1C(=O)N1CCC[C@H]1C(=O)N1CCC[C@H]1C(=O)N1CCC[C@H]1C(=O)N[C@@H](Cc1ccc(O)cc1)C(=O)N[C@@H](CCCNC(=N)N)C(=O)N[C@@H](Cc1c[nH]cn1)C(=O)N[C@@H](CCCNC(=N)N)C(=O)N[C@@H](CC(N)=O)C(=O)O,"WW domain-containing oxidoreductase, WW1-WW2 tandem domains (WWOX, Homo sapiens, UniProt Q9NZC7)","binding, ITC",,"pH 7.0, 25 °C",,TΔS,0.7 ± 0.37 kcal/mol
CC1=C(C(=O)OCc2ccccc2)C(c2ccc(-c3ccccc3)cc2)N(Cc2ccc(-c3nnn[nH]3)cc2)C(=O)N1 (centres unmarked),HSPA1A with Hdj2,"ATPase activity, inhibitor",,"100 µM, Hsp40-stimulated activity, together with: Hdj2 Hsp70:Hsp40 1:0.5","baseline: DMSO, negative means inhibition",fold change in activity,-5 fold
COC(=O)c1scc(C)c1NC(=O)C(C)N1CCN(CC2CC2)CC1 (centres unmarked),SCN9A,cell membrane chromatography,,,higher = stronger binding,capacity factor k′,5.4
Cc1cc(C(C)(C)CC(C)(C)C)ccc1OCCOCC[N+](C)(C)Cc1ccccc1,"Alpha-synuclein, oligomers (SNCA, Homo sapiens, UniProt P37840)","oligomer-vesicle binding, FIDA",,"5 µM, together with: 150 nM oligomers, 50 µM DOPG liposomes",,liposome-bound oligomers,0%
COc1ccc(OCc2ccccn2)c(C=O)c1,HBA1 with beta chain,"kinetic binding, cation-exchange HPLC",,37 °C,,koff,0.7 h⁻¹
CCCCCCCC(=O)OC[C@H](COP(=O)(O)O[C@@H]1[C@H](O)[C@H](O)[C@@H](OP(=O)(O)O)[C@H](OP(=O)(O)O)[C@H]1O)OC(=O)CCCCCCC,"Potassium voltage-gated channel subfamily KQT member 3 (Rattus norvegicus, UniProt O88944)","activator, inside-out patch clamp",CHO,"25 µM, pH 7.4, 0 mV, 175 mM KCl",,open probability,0.72 ± 0.16
Clc1cccc(Nc2nnc(-c3ccccc3)c3ccccc23)c1,"PDE1C (Homo sapiens, UniProt Q14123)","cAMP hydrolysis, inhibitor, fluorescence polarization",recombinant enzyme,"up to 100 µM, 30 min preincubation, 30 °C, together with: fluorescein-cAMP 25 nM",,IC50,inactive
O=C(O)c1ccc2c(c1)OCCO2,"PY04617 (Plasmodium yoelii, UniProt Q7RFT5)",ultrafiltration HPLC-UV,,"0.1 mM, pH 7.25, 4 °C, 6.5% DMSO, together with: methionine competitor",,UV signal reduction,51.8 ± 2.8%
DDLKQKACESRCTKL,human IgE,peptide microarray,"peptide, peanut/walnut-allergic patient sera","concentration not given, 16 h, 4 °C",,patients with IgE binding,0%
CC(=O)N[C@H]1[C@H]([C@H](O)[C@H](O)CO)OC(C(=O)O)=C[C@@H]1O,"Sialidase A (nanA, Streptococcus pneumoniae, UniProt P62575)","neuraminidase activity, fluorescence",,,baseline: cpd over oseltamivir,IC50 ratio,~10 fold
CSCC[C@H](NC(=O)[C@@H]1CCCN1C(=O)[C@@H](NC(=O)[C@H](Cc1ccc(O)cc1)NC(=O)[C@H](C)NC(=O)[C@@H]1CCCN1C(=O)[C@@H]1CCCN1C(=O)[C@@H]1CCCN1C(=O)[C@H](CO)NC(=O)[C@H](Cc1c[nH]cn1)NC(=O)CN)[C@@H](C)O)C(=O)N[C@@H](CO)C(=O)O,WWOX Y85W WW2 domain Y85W,"binding, ITC",,"pH 7.0, 25 °C",,ΔG,-4.38 ± 0.05 kcal/mol
COC(=O)c1scc(C)c1NC(=O)C(C)N1CCN(c2ccccc2)CC1 (centres unmarked),SCN9A,cell membrane chromatography,,,higher = stronger binding,capacity factor k′,29.2
O=c1cc(-c2ccc(O)cc2)oc2cc(O)cc(O)c12,"Kcnh1 (Mus musculus, UniProt Q60603)",inside-out patch clamp,Xenopus oocytes,10 µM,,V1/2 shift,-5.3 ± 1.9 mV
CC(=O)N[C@H](Cc1ccc(I)cc1)C(=O)N[C@H](Cc1ccc2ccccc2c1)C(=O)N[C@@H](Cc1ccc2ccccc2c1)C(=O)N[C@@H](CCCNC(=N)N)C(N)=O,"Mc1r (Mus musculus, UniProt Q01727)","cAMP, agonist, AlphaScreen",HEK293,,,Emax,20%
CN(C)c1cccc2c(S(=O)(=O)Nc3ccc(C=CC(=O)O)cc3)cccc12,"Peptidylglycine alpha-amidating monooxygenase, PHM domain (Pam, Rattus norvegicus, UniProt P14925)",inactivator,,"pH 6.0, 37 °C, together with: 5.0 mM ascorbate",,kinact,0.00333 ± 0.0005 s⁻¹
CC(=O)N[C@@H](Cc1ccccc1)C(=O)N[C@H](Cc1cccc2ccccc12)C(=O)N[C@@H](CCCNC(=N)N)C(=O)N[C@@H](Cc1c[nH]c2ccccc12)C(N)=O,"Melanocortin receptor 3 (Mus musculus, UniProt P33033)","receptor activity, agonist, cell-based",,"up to 100 µM, Schild antagonism analysis",,agonist and antagonist activity,inactive
N[C@@H](CSS)C(=O)O,"Persulfide-sensing transcriptional regulator CstR (Enterococcus faecalis, UniProt Q82ZQ7)","thiol modification, oxidant, LC-MS",,"1.2 mM, pH 7.4, anaerobic, 60 µM protein",,pseudo-first-order rate constant,0.033 ± 0.001 s⁻¹
CC/C=C/[C@H](CC)C/C(=C/[C@@]1(CC)C[C@H](CC)[C@H](CC(=O)O)OO1)CC,"NPY1R (Homo sapiens, UniProt P25929)","ligand displacement, radioligand",,"100 µg/mL, 30 min",,remaining binding,78%
COc1ccc(-c2cc(C(N)=O)nc3cc(CN4C(=O)CCC4=O)ccc23)c(F)c1,"Grm2 (Rattus norvegicus, UniProt P31421)",in vitro autoradiography,rat brain sections,"concentration not given, radiolabelled compound, together with: blocker 1 µM",baseline: baseline,binding reduction,50 to 60%
Cc1nc2ccccc2nc1N/N=C/c1ccc(O)cc1,GRM4,positive allosteric modulator,CHO cells with Gqi5,together with: glutamate EC20,baseline: glutamate maximum,Emax,141%
O=C(N[C@H]1CNC1=O)c1ccc(-c2ccccc2)cc1,"NAAA (Homo sapiens, UniProt Q02083)","enzyme activity, inhibitor, fluorogenic PAMCA hydrolysis",,"pH 4.5, together with: 5 µM PAMCA",,IC50,inactive
KACESRCTKLEYDPR,human IgE,peptide microarray,"peptide, walnut-allergic patient sera","concentration not given, 16 h, 4 °C",,patients with IgE binding,42%
COc1c(O)cc(O)c2c(=O)cc(-c3ccc(O)cc3)oc12,MAL12,"enzyme activity, inhibitor, absorbance",,50 µM,,inhibition,94.9%
CC[C@H](C)[C@H](NC(=O)[C@@H]1CCCN1C(=O)[C@@H]1CCCN1C(=O)[C@@H]1CCCN1C(=O)[C@@H](NC(=O)[C@H](CC(N)=O)NC(=O)[C@@H](N)Cc1ccccc1)[C@@H](C)CC)C(=O)N[C@@H](Cc1ccc(O)cc1)C(=O)N[C@H](C(=O)N[C@@H](CO)C(=O)N[C@@H](CCCNC(=N)N)C(=O)N[C@@H](C)C(=O)O)[C@@H](C)O,WWOX Y85W WW2 domain Y85W,"binding, ITC",,"pH 7.0, 25 °C",,TΔS,-0.4 ± 0.62 kcal/mol
C[N+](C)(C)C[C@@H](O)CC(=O)[O-],"SLC22A5 (Homo sapiens, UniProt O76082)","transporter uptake, inhibitor",,100 µM,,inhibition,83.7%
COc1ccc2c(=O)c(OC)c(-c3ccccc3)oc2c1,MAL12,"enzyme activity, inhibitor, absorbance",,100 µM,,inhibition,91.7%
COc1ccc(CNC(=O)c2cccc(N3C(=O)c4ccccc4C3=O)c2)cc1,"DRD2 (Homo sapiens, UniProt P14416)","calcium mobilization, antagonist",HEK293 T-REx D2 Gqi5,up to 77 µM,,AC50,inactive
